Measurements collected from several papers.
Every numbered part comes from another study and shows a few of its results, in no order.

Series 1
Target: Interferon regulatory factor 7, full length, phosphomimetic (IRF7, Homo sapiens, UniProt Q92985, residues 1-503, S471D/S472D/S475D/S476D/S477D/S483D/S484D/S487D)
Chain of UniProt Q92985 (whole entry, unmodified, looked up): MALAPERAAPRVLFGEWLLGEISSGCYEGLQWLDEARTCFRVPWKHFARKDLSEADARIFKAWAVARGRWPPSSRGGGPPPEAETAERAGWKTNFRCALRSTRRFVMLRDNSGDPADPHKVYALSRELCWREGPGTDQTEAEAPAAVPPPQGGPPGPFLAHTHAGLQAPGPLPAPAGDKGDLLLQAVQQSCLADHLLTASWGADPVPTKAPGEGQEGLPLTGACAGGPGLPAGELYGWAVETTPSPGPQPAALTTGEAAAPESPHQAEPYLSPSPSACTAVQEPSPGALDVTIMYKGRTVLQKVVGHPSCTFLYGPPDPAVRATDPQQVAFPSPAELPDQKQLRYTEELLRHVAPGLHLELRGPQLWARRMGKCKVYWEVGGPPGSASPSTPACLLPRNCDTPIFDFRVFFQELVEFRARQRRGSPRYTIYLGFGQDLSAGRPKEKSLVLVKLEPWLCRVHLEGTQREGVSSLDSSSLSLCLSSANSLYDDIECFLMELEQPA
Technique: protein-binding microarray
Molecule type: double-stranded DNA, one strand shown
Sample: in vitro
Tested at: 2200 nM top
Setting: 60-bp whole probe
With: salmon DNA 0.4 mg/ml
Baseline: random background probes
Direction: higher = stronger binding
Constant ends, left off below: GCCTAGCAC … GTCTTGATTCGCTTGACGCTGCTG
`TCATTTCCCTATTATATAACTGTGCTA`: “fitted relative affinity” 3.2 z-score.
`GTCGGACTGGGTCTCGGGACGTGCTAG` — result for “fitted relative affinity”: -0.658 z-score.
`TTAGATTCCAGTTTTGATTAGTGCTAG` — result for “fitted relative affinity”: 1.64 z-score.
`GACGAACTGAGACTGGAGAAGTGCTAG`: “fitted relative affinity” -0.229 z-score.
For `GACGGTATCGGGAATGGGGACGTGCTA`, “fitted relative affinity” read -0.37 z-score.
For `TTAGGACTGGGGTATGGGTTAGTGCTA`, “fitted relative affinity” read -0.638 z-score.

Series 2
Target: Centromere-binding protein 1, full length, N-terminal tag (CBF1, Saccharomyces cerevisiae, UniProt P17106, residues 1-351)
Chain of UniProt P17106 (whole entry, looked up): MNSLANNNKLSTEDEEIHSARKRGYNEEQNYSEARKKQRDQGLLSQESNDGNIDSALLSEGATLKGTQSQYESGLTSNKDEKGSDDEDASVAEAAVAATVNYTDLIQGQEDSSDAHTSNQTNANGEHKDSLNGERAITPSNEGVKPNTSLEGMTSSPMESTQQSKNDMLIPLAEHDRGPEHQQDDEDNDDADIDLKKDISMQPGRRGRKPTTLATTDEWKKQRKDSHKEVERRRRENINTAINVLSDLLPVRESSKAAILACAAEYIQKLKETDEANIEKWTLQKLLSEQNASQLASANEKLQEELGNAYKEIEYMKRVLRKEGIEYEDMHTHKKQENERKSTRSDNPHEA
Technique: protein-binding microarray
Molecule type: double-stranded DNA, one strand shown
Sample: in vitro
Tested at: 0.8 µM
Setting: whole 60-bp probe, no competitor
Direction: higher = stronger binding
With `GAAACTTTTTTCCCACACGTGCTTATGGGCCGCTAGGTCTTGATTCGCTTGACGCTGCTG` the fluorescence intensity was 7440 a.u.
With `GAAGATGCGTCTACTCATCACCTATAGTCTCAATAGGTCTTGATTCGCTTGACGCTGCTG` the fluorescence intensity was 513 a.u.
With `TGTACGAAGCTATGACGCGTGGATATAGTAGTTAGGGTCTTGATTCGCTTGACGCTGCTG` the fluorescence intensity was 554 a.u.
`CTAGTTAAGCATAACAAGCACGTGCTGCAGATGTTCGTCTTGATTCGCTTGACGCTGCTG` has a fluorescence intensity of 15400 a.u.
The fluorescence intensity of `GAAATTAATGTTTATCACGTTATTATTTTTTTGTAGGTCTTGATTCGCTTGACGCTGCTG` is reported as 2160 a.u.
`CTACGGACGGATTATCACGCAAGTTTTTTAACGTTCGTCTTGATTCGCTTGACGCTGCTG` gave a fluorescence intensity of 520 a.u.

Series 3
Target: Histone acetyltransferase KAT6A, winged helix 1, GST fusion (KAT6A, Homo sapiens, UniProt Q92794, residues 1-85)
Technique: protein binding microarray
Molecule type: double-stranded DNA, one strand shown
Sample: in vitro
Tested at: not given
Setting: 8-mer, flanks averaged, mean of 2 arrays, mostly near background
Baseline: not given
Direction: higher = stronger binding
Target sequence (chain): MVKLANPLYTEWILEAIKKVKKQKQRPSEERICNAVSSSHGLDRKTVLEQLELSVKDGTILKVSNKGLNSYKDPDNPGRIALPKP
The E-score of `GTGCGGAA` is reported as 0.125.
For `TAGGACAA`, the E-score was -0.35.
With `CCTAATCA` the E-score was -0.138.
`CTAAGGCA` has an E-score of -0.0576.
`CCGAAGCC` gave an E-score of 0.193.
For `CGCTTCTA`, the E-score was 0.00556.
The E-score of `AGAAGGGC` is reported as -0.0509.

Other studies, line by line
`PhoQ, residues 284 288 289 292 302 303 ALVSVA` gave a fold induction of 9.32 (PhoP, residues 12 14 15 18 19 LWHVM (Escherichia coli, UniProt P23836); Sort-seq, refers to: YFP reporter; E. coli; PhoQ-PhoP variant library, with: 10 µM Mg2+; baseline: high Mg2+ state, higher = stronger signaling).
